Measured values pooled from the literature.
Numbered parts are unrelated; each lists some results of a single study. Substitutions count along the parent as printed.

Study 1
Target: PABPC1L2, full length, GST fusion (mouse, UniProt A0ABA7IW68)
Method: RNAcompete
Form: RNA
Matrix: in vitro
Tested at: 20 nM
Notes: 7-mer, probes averaged, single round
Baseline: mean of 7-mers
Direction: higher = stronger binding
Target sequence (chain): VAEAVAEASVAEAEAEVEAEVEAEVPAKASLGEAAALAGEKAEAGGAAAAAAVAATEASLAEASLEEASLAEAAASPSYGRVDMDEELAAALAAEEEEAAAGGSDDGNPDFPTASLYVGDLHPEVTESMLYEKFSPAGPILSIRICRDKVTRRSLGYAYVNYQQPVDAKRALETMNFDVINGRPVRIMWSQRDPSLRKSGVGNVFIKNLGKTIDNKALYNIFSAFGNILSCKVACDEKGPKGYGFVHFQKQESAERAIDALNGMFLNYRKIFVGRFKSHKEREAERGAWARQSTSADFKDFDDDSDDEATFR
Sequence	7-mer Z-score
CCUGCAA	0.00617
GCGAGUC	-0.333
CCAUACU	-0.278
CACGGGG	0.115
AUCUCAG	-0.0573
AGCCUUG	-0.313
CGAUCCG	-0.251
AACUUGG	0.249
UUUUUAA	0.0768
CACUAAU	-0.219
GGCUUUA	0.253
CUCGGAC	-0.217
GCAGGGU	0.0895
UCCGGGU	-0.199
UUGUCUU	-0.463
AAUACAG	0.474
UACUACG	-0.204
AGUAAUU	-0.166
GACCUUC	-0.34
GAAGACA	0.254
GACUCAU	-0.162
CACCAUC	-0.237
UCAGCUC	-0.306
UGACCCG	-0.304
CGUUACA	-0.079

Study 2
Target: CEBPD, bZIP domain (human)
Method: DHFR protein complementation
Matrix: yeast
Notes: single substitutions, most at no-binding floor
Baseline: wild-type JUN-FOS pair
Direction: higher = stronger binding
Starting sequence: JUN, bZIP domain (human); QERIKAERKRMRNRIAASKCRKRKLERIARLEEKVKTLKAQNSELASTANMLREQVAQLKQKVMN; partner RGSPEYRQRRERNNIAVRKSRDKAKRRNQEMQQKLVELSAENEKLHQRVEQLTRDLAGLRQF
Variant	binding fitness
S47K	-1.22 natural log
A40C	-1.45 natural log
K34D	-1.45 natural log
S47H	-1.36 natural log
E32P	-1.49 natural log
T37C	-1.18 natural log
N42H	-1.39 natural log
K39H	-1.39 natural log
L59A	-1.31 natural log
R30H	-1.35 natural log
A57R	-1.38 natural log
Q41P	-1.46 natural log
S43Y	-1.46 natural log
Q41H	-1.28 natural log
A46P	-1.49 natural log
Q55K	-1.36 natural log
L38K	-1.44 natural log
E33P	-1.46 natural log
Q55F	-1.45 natural log
L45F	-1.49 natural log
S47I	-1.39 natural log
L45P	-1.51 natural log
E44Q	-1.43 natural log
M51V	-1.39 natural log
K39L	-1.41 natural log

Study 3
Organism: Saccharomyces cerevisiae
Read-out: binding
Method: competitive growth deep sequencing
Form: peptide
Strain: cyclin E1-Cln2 fusion strain
Notes: peptide tiling library
Direction: direction not given
Sequence	enrichment score
SAVPLILPQAPSGPSY	2.51
PKNAKRNLSSEFAN	0.0909
PAKRRLELGE	0.474
IVLICAKRSLCAAFSV	-1.11
DGCSPIKNWSPMRL	1.83
SSEVARHLLFQSHM	-0.939
TARRIFQEPTEPKTKA	-1.48
PARRRLRLSVDEVSSP	-0.411
KPHVSDEEEEEPPFYH	1.01
PKRAKRKLYTSEISSP	-0.527
DTERAHSTLDEDLERW	-1.43
KPKPVKPVTFSTGIKM	2.94
VLVRTSACRSLFGPVD	0.602
GLPDFVFQQQPVESEA	0.945
SMTDFYHSKRRLIFSK	-0.807

Study 4
Target: RNA binding protein fox-1 homolog 2, RRM domain, GST-SBP tag (RBFOX2, Homo sapiens, UniProt O43251-10, residues 100-194)
Method: RNA Bind-n-Seq
Form: RNA
Matrix: in vitro
Tested at: 365 nM
Notes: natural RNA segment, single round, ends assumed
Baseline: no-protein control
Direction: higher = stronger binding
Shared flanks, not repeated: GGGAGUUCUACAGUCCGACGAUC … UGGAAUUCUCGGGUGCCAA
Residues (chain): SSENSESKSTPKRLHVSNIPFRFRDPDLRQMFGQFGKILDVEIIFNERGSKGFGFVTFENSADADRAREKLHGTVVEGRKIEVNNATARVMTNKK
Sequence	RBNS enrichment (R)
UAUCUCCUCUGCCUGUGACUUGGGUGGGACUGUCAUUGUGGGUAGCCAUUUAUUGAAUUCAACUUUUUGCCAAGGAAGCUUAUCUCAAGGGAAAUGCAGUUUUUUAAUAG	3.51
AUAUGAGAAUAUCUAUCUGGCAUUAUCUAUCUGCCAAUCUCACUGUAAUAAAUUGAUUAUUUUGCCUAAACUGGUUCAUAUCUUUUUCUUUGUUUUGGUCACUUUUUAAU	0.648
AAUUGGAGGAGGCUUGGCCCUCAGCCCUUAUAUCUCUCUCUUUUUCACUCUCUUCCUCCCACCCCCAAGACUGAGUUUUGGGGGGCAAGGUGGAGAGAGCUGGCAACUAC	0.198
UUAAAGGGGAAGUAUUAUUAUAAAAUGAAGAAAUAUGUAUUUCUAAAGGCUAUAUUGCUGUAAACUUAAUUGAUAAAGCUCUGUUUAAUUUAGAGUUUUGAAGAAAUAGU	0.476
CGUGCAAGCUGCUGUGGGAGGGUAAGCACCCCUCCCAGCACAGAAACCUUUCCUUUGAAUCAAUAAAGUUUUAUGUCGGCCUGAGUGUCUUGUGAGUUUGUGUACAGUCA	1.35
GUGCGGGGCAGAGGCCCUUCUCUGCGCCAAAUGUCUGACUACACAGUAUACACAGGACAUUGUUGCUGCCGCCACCGAGACUGGUUUUCUGUCCCUGAGAACAUGACGUU	0.618
UGUCAAAGCCGAGAGACCAGCCUGCGUCCUAAAGUUUGCUUUAGAGAGUAGGAAUGUCGGGGUUUCCAGUUAGAAAACCUUUAUUUUUGGAAACGGAAUAAAAAUCUCUU	0.313
CAGCCUACAUGGUGAAUCCAGAGUGUGCCCGGUUCCACAUCACCUCUUCAUGGUCUGCUGUGCACAAACUAUAUCCGAGAGAUCCUGUCUCCCCAAAAGCCACUGCUGGG	0.209
AAAGGCCCUGCGUGGUCAGGCCUGGUUCUGUGACCUGGAAGGUGACAAGCCAUCCAUCCCCCAUGGGAGAGGAGACAGUGUGGCAUCUGGGCCCAGCCCAGGGUCUGACU	0.189
AAUAGUGUGAUGUUUGGAUUGAUAUCGUGAAAUCCUCAGCCGAGAAAUUGGGCUGGAUUGUGCUUUGGUUAAUACAUCUUUCCCUAAAGAAGAUAAACACAAAAUCCAUU	0.455
GCUGGACUGACAGUAGGAAGUAGAAAUAAGCUAUGUGUAGUCUUGGAAAGUUCCCACCUCACAGGGAAUGAAACCUAGGGAACACCAGGUACUCGGCGCCCUGUGGACUG	0.722
CCCAGGCAGGUCAUCUUUUCUGGGAGAUGCUUCCCCUGCCAUCCCCAAAUAGCUAGGAUCACACUCCAAGUAUGGGCAGUGAUGGCGCUCUGGGGGCCACAGUGGGCUAU	0.375

Study 5
Target: RING finger protein unkempt homolog, zinc fingers 1-6, GST-SBP tag (UNK, Homo sapiens, UniProt Q9C0B0, residues 30-357)
Method: RNA Bind-n-Seq
Form: RNA
Matrix: in vitro
Tested at: not given
Notes: RNA with constant flanks, human and mouse sites, ends assumed
Baseline: input RNA pool
Direction: higher = stronger binding
Shared flanks, not repeated: GGGAGUUCUACAGUCCGACGAUC … CAACAGAGGAUUGAGCAUCA
Construct (chain): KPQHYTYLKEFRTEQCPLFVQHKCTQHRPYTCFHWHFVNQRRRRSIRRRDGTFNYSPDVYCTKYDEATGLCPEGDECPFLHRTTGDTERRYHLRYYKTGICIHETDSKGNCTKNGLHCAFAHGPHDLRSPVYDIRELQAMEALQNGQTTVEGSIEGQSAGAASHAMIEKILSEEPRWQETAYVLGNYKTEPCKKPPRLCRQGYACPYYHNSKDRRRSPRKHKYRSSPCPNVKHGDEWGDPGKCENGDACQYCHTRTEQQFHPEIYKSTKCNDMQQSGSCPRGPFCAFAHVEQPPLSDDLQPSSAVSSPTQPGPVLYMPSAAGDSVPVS
Sequence	bound/input enrichment
UUUGGCUUGCUUUGUUUGGUGGCAAGUUGCUUACCUACUAAGCUAUAUCACUAGCCAAAAAAUAGCAGGGUUUGUGUAUUUGUUUGCUUUUAUGUAUCUGGGGGUUUUGUUUACAUGUAU	0.599 ratio
UUUCUCACUCACAUUUUUAUGAAGAGAAUUUUGCAUGAUUUUAUGAUUGACAGCAUCUUAAAAUCUAGUUUGUGAUCCUCCUAGCACGGAGAAGGAAUCCUUAUCUGGGAAAAGUCUGUG	0.237 ratio
CUGGACUUCCACCGCUGUCAGAAGGCAAUGACCGCUAAAGGAGGCGAUAUCUCUGUGUGCGAAUGGUACCAGCGUGUGUACCAGUCCCUCUGCCCCACAUCCUGGGUCACAGACUGGGAU	0.0773 ratio
CUCUAUGGGCCUCGCAGAGUUGAAAUAAUGGAAGAGGAAAGUGAACAGUAAUCUUCAUUUUAGUAUUUAUGCUUAGAUGUGAAAAUAAAUGUUAUUUGUUGAUCAUUUCUAUAAUCCAGA	4.81 ratio
UCCCAGCCCUAGUGACCUUGUCUUCCCAUGGGCUUUUUUCCCUUCCUAGUGUCUGCAGGCUAGGUGCCUCCUCCAUAGGUGGUCCUGCUUUCUGUUCCUGGGGUUAGGGUGGCCCUCUCC	0.258 ratio
ACGUUUACCCACUUGAAACAGCAGCUCUCUCUGCUCCCUCUAAUGGAACCAAUCAUUGGAGUGAACUUUGCGCACUUUCUUCCUUAUGGCAGUGGCCAAUUUAAUAGUGGGAAUCGACUU	0.111 ratio
UUAGCCUUUUAAUUGAUCGAGGUGCUGAAGUAGAUCAUUGUGAUAAAGAUGGCAUGACUCCACUGCUGGUAGCUGCCUAUGAAGGACAUGUUGAUGUGGUUGACUUGCUUCUAGAAGGGG	1.67 ratio
GGACACUGUGUACACAUGCGGGGAUUACCAUACAGAGCUACUGAGAAUGACAUUUAUAAUUUUUUUUCACCACUCAACCCUGUGAGAGUACAUAUUGAGAUUGGACCUGAUGGCAGAGUA	1.58 ratio
CCAACAGGGGAAGCAGCAGCUAAUACCCAGCAGACACUUACUUUCUAUGAGCUAGACCUUGGUUUAAAUCAUGUGGUCCGAAAAUACAGUGAACCUUUGGAGGAACACGGCAACUUCCUU	0.193 ratio
GAGGAUCCGGAACUGGCUAAGUCUUUUAUUAAGACAUUAUUUGGUGUUCUUUAUGAAGUGUAUAGUUCCUCAGCAGGACCUGCGGUCAGACAUAAGUGCCUUAGAGCAAUUCUUAGGAUA	0.516 ratio
GAUUGUCAAGUGGGGAACACGACAGACUUCUGUUCCGUUUCCACGGCCACUCCAGUGCCAACAGCCAAUUCUACAGCUAAACCCACAGUUCAGCCCUCCCCUUCUACAACUUCCAAGACA	0.293 ratio

Some of these lines once more (study 4):
Sequence	RBNS enrichment (R)
AAUUGGAGGAGGCUUGGCCCUCAGCCCUUAUAUCUCUCUCUUUUUCACUCUCUUCCUCCCACCCCCAAGACUGAGUUUUGGGGGGCAAGGUGGAGAGAGCUGGCAACUAC	0.198
UUAAAGGGGAAGUAUUAUUAUAAAAUGAAGAAAUAUGUAUUUCUAAAGGCUAUAUUGCUGUAAACUUAAUUGAUAAAGCUCUGUUUAAUUUAGAGUUUUGAAGAAAUAGU	0.476
CGUGCAAGCUGCUGUGGGAGGGUAAGCACCCCUCCCAGCACAGAAACCUUUCCUUUGAAUCAAUAAAGUUUUAUGUCGGCCUGAGUGUCUUGUGAGUUUGUGUACAGUCA	1.35
GUGCGGGGCAGAGGCCCUUCUCUGCGCCAAAUGUCUGACUACACAGUAUACACAGGACAUUGUUGCUGCCGCCACCGAGACUGGUUUUCUGUCCCUGAGAACAUGACGUU	0.618
UGUCAAAGCCGAGAGACCAGCCUGCGUCCUAAAGUUUGCUUUAGAGAGUAGGAAUGUCGGGGUUUCCAGUUAGAAAACCUUUAUUUUUGGAAACGGAAUAAAAAUCUCUU	0.313
CAGCCUACAUGGUGAAUCCAGAGUGUGCCCGGUUCCACAUCACCUCUUCAUGGUCUGCUGUGCACAAACUAUAUCCGAGAGAUCCUGUCUCCCCAAAAGCCACUGCUGGG	0.209
